Assay results from different studies.
Numbered parts are unrelated; each lists some results of a single study.

Set 1 — technique: aptamer microarray, sandwich; form: DNA with 2'F-ANA; matrix: in vitro; concentration: 200 nM; with: Cy3 exosite-II aptamer, 400 nM; direction: higher = stronger binding; measurement: mean fluorescence intensity; strand: GGTTGGTGTGGTTGG
Target: Prothrombin, mature alpha-thrombin (F2, Homo sapiens, UniProt P00734)
Setting: whole 15-mer aptamer, many near background
2'F-ANA at 1 6 11 12 14: 68.5 a.u.
2'F-ANA at 1 4 5 7 10 11 12 14: 51.2 a.u.
2'F-ANA at 1 2 3 4 6 7 9 13 14: 53.3 a.u.
2'F-ANA at 1 4 5 6 10 11 12 13 15: 50.7 a.u.
2'F-ANA at 1 3 4 12 15: 461 a.u.
2'F-ANA at 1 5 9 12 13 14 15: 45.2 a.u.
2'F-ANA at 3 4 7 8 12 15: 1100 a.u.
2'F-ANA at 1 6 7 8 9 12 13: 283 a.u.
2'F-ANA at 1 3 10 12 13 14 15: 63.8 a.u.
2'F-ANA at 1 2 3 5 11: 50.8 a.u.
2'F-ANA at 2 3 4 7 10 15: 300 a.u.
2'F-ANA at 2 3 4 6 7 12 13: 558 a.u.
2'F-ANA at 1 2 4 5 6 9 13 15: 52 a.u.
2'F-ANA at 1 5 9 11 14: 43.2 a.u.
2'F-ANA at 2 5 6 7 9 10 13 14: 43.9 a.u.
2'F-ANA at 3 4 5 9 11 12 13 14: 82.7 a.u.
2'F-ANA at 1 2 3 4 5 6 8 12 13 14 15: 274 a.u.
2'F-ANA at 6 13 14: 170 a.u.
2'F-ANA at 3 7 10 12 13 14 15: 425 a.u.
2'F-ANA at 1 3 4 5 7 8 15: 138 a.u.
2'F-ANA at 1 3 4 7 8 14 15: 89.9 a.u.
2'F-ANA at 10 12 15: 246 a.u.
2'F-ANA at 1 2 3 4 5 7 10 11 12: 50.8 a.u.
2'F-ANA at 1 3 4 6 9 12 14: 102 a.u.
2'F-ANA at 2 3 5 6 7 9 10 13 14: 49.9 a.u.

Set 2 — technique: protein-binding microarray; form: double-stranded DNA, one strand shown; matrix: in vitro; concentration: 250 nM; setting: 60-bp whole probe; with: salmon DNA 0.4 mg/ml; reference: random background probes; direction: higher = stronger binding; measurement: log fluorescence; constant ends, left off below: GCCTAGCAC … GTCTTGATTCGCTTGACGCTGCTG
Target: Interferon regulatory factor 5, full length, phosphomimetic (IRF5, Homo sapiens, UniProt Q13568-2, residues 1-514, K96S/S451D/S453D/S456D/S462D)
GACGATATCAGTATCGAGGCGTGCTAG: 2.72 z-score
TCTCCTTTCCAAATACCCTCGTGCTAG: 0.883 z-score
TTAGGTTTCGGTATCGGTTTGTGCTAG: 11.2 z-score
GACGGACTGCTTATACTGACGTGCTAG: -0.428 z-score
TTAGATATCAGTCTCGATCAGTGCTAG: 1.7 z-score
GACGGTATCGGGACGGGGGACGTGCTA: 2.98 z-score
GACAGACTGGGTTTCGGGACGTGCTAG: 2.68 z-score
GACGGTATCGGTTTGGGGACGTGCTAG: 6.28 z-score
TCAAGCAAAAATGATTGACTGTGCTAG: 0.36 z-score
GATGTTTTGAGTTTTCCTTCGTGCTAG: 0.599 z-score
GACGAACTGGCGACTGGAGACGTGCTA: -0.525 z-score
CCTTTTTTTTTTTTTCTGATGTGCTAG: 0.95 z-score
CATTTTTTTTTTCTACTTCTGTGCTAG: 1.43 z-score
ATAGATATCAGTCTCGATTAGTGCTAG: 2.22 z-score
GACGGACTGGGTTATCGGGACGTGCTA: -0.146 z-score
TCCATTTCTGTTTTTGCTTTGTGCTAG: 3.23 z-score
ATGTTTTTCATTTTTTTTCAGTGCTAG: 2.34 z-score
TTAGAACGGAGACTGGATTAGTGCTAG: -0.274 z-score
GGCGATTTCGGGTATCGAGACGTGCTA: 5.01 z-score
GACCTCGTCTCTATCAAAAAGTGCTAG: -0.00827 z-score
GACGGTATCGACTATGGGGACGTGCTA: 2.26 z-score
TCACATTTTGGTTTTCAACTGTGCTAG: 1.41 z-score
TCAGCTGTCCTTTGCAAACTGTGCTAG: -0.106 z-score
GCAACACTCACCATGGCTAGGTGCTAG: -0.318 z-score
CTGTTTTTCCCCTGCACTCAGTGCTAG: 0.86 z-score

Set 3 — technique: RNA Bind-n-Seq; form: RNA; matrix: in vitro; concentration: 365 nM; reference: no-protein control; direction: higher = stronger binding; measurement: RBNS enrichment (R)
Target: RNA binding protein fox-1 homolog 2, RRM domain, GST-SBP tag (RBFOX2, Homo sapiens, UniProt O43251-10, residues 100-194)
Setting: natural RNA segment, single round, ends assumed
Constant ends, left off below: GGGAGUUCUACAGUCCGACGAUC … UGGAAUUCUCGGGUGCCAA
Target sequence (chain): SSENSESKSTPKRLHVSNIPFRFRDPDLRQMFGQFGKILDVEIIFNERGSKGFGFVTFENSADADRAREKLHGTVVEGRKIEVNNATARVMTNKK
GUGUUCGGGGGCCUCUGGCUGCUGAAGGAUUCGGUCUACCACGGAGGGCUGUGCUGUUAGGCUGCAUCCCACUCAAAAUACAGGAAAAGCACGAAUCAUGAUUCUGCUUU: 0.214
AGGGGAAGUUGAAACCCUAGGGCACCCCCACCACCUCUGCUCGAGAGGUCCGUGGGGGAGGCCGUGGGCAAAGGUGUCCCGAGCUGCCAUGUUUAGGAAACACACUGUAC: 0.265
UUCAUUGGGGAGGAUACAACUUUUGACUUUACACAGGUGGACUUUGAAUCCAUUUUUAUAGAAUUUUUUUCCACUGUAACUUGACCUAUAUUAUGCAAGAAAAUCCCAAA: 0.635
UCAACUACUAGACAGCCAGGCUAAGCCUUCUCAUUCUGUUCUGAAGAUUCUAAAAAAAUUCGAACCAUCAACAAUAGUAUGUAUAAUUUGAACUUCCAUGAUUGAUCCUU: 0.327
AGGCACUGCAUGCCUGUCUCCUUAUGAGGAAGGCUGCAAAUUUCAGAGAAAGGGAGGUGAGGUUUCCACCAUGUUGGCUGUUGACUCUCCCUGUAUGUUAAACCCUUGAC: 0.913
AUAAGCUGAAAGUGCAGCUCGCUGCAGGCCCCAGAGCGAGCUUCCCCUCCUCCCUGCUCUCCCAGGCCCCUGCCACAGCCUCUUUCCGUCCCUCUCUUUCUGAUCCAGGC: 0.692
GCAUUCAUUUCUAUACAUCACACAUCUCCAGGAGAAUGCACAUUAUAGGUAUGUAAUGUGGAACCGACACUGGGGAGAUCUGAAGGAAGAAGGCAUGAGGCACUCUCUGA: 1.62
GUAUCACCUUCACUGACUCCAUUGAGUCAUUGAGCAUCUGUACAUAUCCUUCACCACCCCCAGUCCCAGCACCUGUGUCAGUAAAGAAAGUGGACACAUUAGUAAUGGUU: 0.405
UGGCCUUCUGACAGGUUUCUUUUUAUUAGAACCACAGUUUUGACUUUGUUUUGGUAAGCUGUCCUCCAGGAUCAGCACUGCCUGUGAAUACUUUGAACUGUCUCCUGCUU: 0.213
CUGUUUUCUGGCAGGUGCCCUCCUUGGAAACUGGUUUUGGCUCUGAUCAGCGGUUCUUUUUGCAGCAAAGCCUGCAUCUGUGUUGACUUGCAAGAUUUUGCGUUUAUUCA: 0.47
UACUCUGGAAAGUGUGGGGAUGGAGAGGAUGGUGCAUUUCCAGUGCUUCCUUACCUGUCAAUAACAAUGGUGGCCACCUGGGUCCCAGCACUUGGCUGGUGGAGAGAUUU: 0.39
UGACAUCCAUAAACAGAGGCAGGCCUAGGCUCUGGAAAGAUCCUCAGUCCUUUCUUACAACAACUUGGAGCCAUAGUAACCUCCGAAAUGAGGUCUCAGCAAGCCACUUU: 0.213

Set 4 — technique: RNA Bind-n-Seq; form: RNA; matrix: in vitro; concentration: not given; reference: input RNA pool; direction: higher = stronger binding; measurement: bound/input enrichment
Target: RING finger protein unkempt homolog, zinc fingers 1-6, GST-SBP tag (UNK, Homo sapiens, UniProt Q9C0B0, residues 30-357)
Setting: RNA with constant flanks, human-mouse chimeric sites, ends assumed
Constant ends, left off below: GGGAGUUCUACAGUCCGACGAUC … CAACAGAGGAUUGAGCAUCA
Construct (chain): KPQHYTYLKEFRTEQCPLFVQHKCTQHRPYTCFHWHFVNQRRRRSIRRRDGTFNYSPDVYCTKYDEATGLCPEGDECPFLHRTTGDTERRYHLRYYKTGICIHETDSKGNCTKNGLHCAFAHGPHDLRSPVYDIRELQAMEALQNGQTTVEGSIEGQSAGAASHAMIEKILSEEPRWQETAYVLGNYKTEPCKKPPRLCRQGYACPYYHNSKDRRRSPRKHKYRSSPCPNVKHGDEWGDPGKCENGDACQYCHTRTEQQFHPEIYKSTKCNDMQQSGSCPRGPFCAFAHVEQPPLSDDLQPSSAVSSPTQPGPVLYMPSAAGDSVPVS
GUACUGCAACAGCAGGGAAAACUGCAGGAAGCUCUGAUGCAUUAUAAGGAGGCUAUUCGAAUCAGUCCUACCUUUGCUGAUGCUUAUUCUAAUAUGGGAAACACUCUAAAGGAGAUGCAG: 0.192 ratio
UUCCCAACCUCCCGCCUCACCCCACCCCCGCUUUUUGGAAAGUUUUUGGCGUUUCUUUUCCUUCCCCAUACAAAGUGAUUACAGUUUCCCCCGCAAGGGUCUAUCGAAGGGCUUGACGGA: 0.564 ratio
GCAAGAGAUGAUGAGGCAGCUGCAGUUGCCCUUUCCUCUCUCGUUCAUGCUUUGGAUGAGUUAAACAUGGUCGCCAUCGUCCGAUAUGCUUAUGACAAAAGAUCUAAUCCUCAAGUUGGU: 0.116 ratio
UGUGCAUAUGAUGCUUGAGAUGGUUUUUGCAAAAGCAGAAAUCGCUGCAAGGUAAUCACAAUAGAUAAAAGUGGUAUUUUAAACCUUUGAAAGGAAUGGAUGUAACUGUACGUUGGUACA: 0.472 ratio
AAUUUCCGCAACUGUUUUUUAGACAUUCACAUCAGACUUACAGAGCACCUGGCCACAUUCUAGGUUUGAAUUAUUUCUCAGCUAUGGAUAUGAUCAAAUGAGAACACUGCUUAACUAAUG: 0.803 ratio
GCUCCUCCCCGCUCUGCAGCCUGGGGACACUGGGCUGGGACCAGAAUCUUAUUUUUUUUUAAAACUCUAUAUUUUUUUGUAUCCCGUGACAUUUCAUUUUUUUUAAAUAGUGUAUUUUUU: 18.2 ratio
UCUUAACGUCCAUUUAACUUAUUUUUAUAUAGCUAGAUAAAUAUUGUUAGUCUUAGACAAUAGCUCACAUUUUUUGAGAAGCAUGCCCUCCCUGUCCAUUUGUCUUAUAACAUGACCCAG: 33.8 ratio
GUUGCCAGCUUCCGGUUCCGUUGGGCUCGGUUCUCUCCUGAGCUACGUGUCUCUACGCUCUCAAUCCCGGUUGGGUAAAACAUGGAUCAGGUAAUGCAGUUUGUGGAUGAGCCAAGUCAG: 0.0706 ratio
UAAAUUAGGGCUGCCGUUUUCUGUUUCUCCCUGGGCUGCAGACAGCUAGAAGAUUUUAUCUAGCUUAUACAAGGCUGCUGGUGUUCCCUCCCUCCCGCCACGAGGGUGUUUUUGGCUGCA: 0.632 ratio
AAAUCGUGUGUGUCCAAUAUUGAAAGUACUUUAUCUGCACUCCAGUAUGUAAGCAGUAUAGUAGUUUCUUUAGAGAAUAGGUCAGCCAUUGUAAAGUAUAAUGCAAGCUUAGUCACUCCA: 2.52 ratio
UUACUUUUGACUCCCUGGGUCAAGUUCCUGUGGGAAUCAUACAGGCAGUGUUUGGACCUUCUUCGAAACAAUUCUAGAGUAGAGCGCCUUUACCAUGAUAUCGCCCAGCAAGCUUUCAAA: 0.208 ratio

For quick reference, copied from above (set 2):
GACGGACTGCTTATACTGACGTGCTAG: -0.428 z-score
TCAAGCAAAAATGATTGACTGTGCTAG: 0.36 z-score
TCAGCTGTCCTTTGCAAACTGTGCTAG: -0.106 z-score
GATGTTTTGAGTTTTCCTTCGTGCTAG: 0.599 z-score
GACCTCGTCTCTATCAAAAAGTGCTAG: -0.00827 z-score
ATGTTTTTCATTTTTTTTCAGTGCTAG: 2.34 z-score
GACGAACTGGCGACTGGAGACGTGCTA: -0.525 z-score
TCACATTTTGGTTTTCAACTGTGCTAG: 1.41 z-score
GACGGTATCGACTATGGGGACGTGCTA: 2.26 z-score
GACGGACTGGGTTATCGGGACGTGCTA: -0.146 z-score
GACGATATCAGTATCGAGGCGTGCTAG: 2.72 z-score
CTGTTTTTCCCCTGCACTCAGTGCTAG: 0.86 z-score
